# Measurements from different studies.
# Parts stem from different laboratories: compare values within a part only. Substitutions count along the parent as printed.
# Sequence of UniProt P31751 (whole entry, looked up): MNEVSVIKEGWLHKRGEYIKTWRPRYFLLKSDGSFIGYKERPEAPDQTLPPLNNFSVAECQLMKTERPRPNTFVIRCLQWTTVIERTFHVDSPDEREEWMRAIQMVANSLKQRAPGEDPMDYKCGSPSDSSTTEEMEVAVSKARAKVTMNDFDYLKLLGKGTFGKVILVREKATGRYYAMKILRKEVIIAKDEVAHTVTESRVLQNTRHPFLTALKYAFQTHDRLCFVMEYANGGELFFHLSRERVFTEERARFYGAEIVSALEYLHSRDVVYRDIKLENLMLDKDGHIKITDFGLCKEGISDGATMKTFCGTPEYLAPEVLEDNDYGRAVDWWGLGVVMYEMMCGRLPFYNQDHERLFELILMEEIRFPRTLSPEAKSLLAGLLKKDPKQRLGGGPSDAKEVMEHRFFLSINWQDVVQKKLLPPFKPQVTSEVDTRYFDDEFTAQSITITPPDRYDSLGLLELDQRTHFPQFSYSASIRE

# Block 1
# Target: CCNB3, cyclin fold, Cln2 fusion (human)
# Technique: yeast growth competition, sequencing
# Sample: yeast
# Setting: strong parent motif
# Relative to: not given
# Direction: higher = stronger binding
# Starting sequence: viral docking peptide; KGVKRKLFAEDSS
Change,normalised enrichment score
KGVCRKLFAEDSS [K4C],2.8
KGVGRKLFAEDSS [K4G],0.494
KGVKRELFAEDSS [K6E],0.26
KGVKFKLFAEDSS [R5F],0.306
KGVKRKLEAEDSS [F8E],0.074
KGVKRRLFAEDSS [K6R],3.14
KGVKRCLFAEDSS [K6C],0.948
KGVKRKLSAEDSS [F8S],-0.419

# Block 2
# Target: tungstate, free oxyanion
# Technique: microfluidic competitive inhibition
# Sample: in vitro, cell-free expressed
# Concentration: not given
# Setting: derived from inhibition constants, unchanged parent 2230 nM
# Direction: lower = stronger binding
# Starting sequence: PafA, mature enzyme, eGFP fusion (Elizabethkingia meningoseptica, UniProt Q9KJX5); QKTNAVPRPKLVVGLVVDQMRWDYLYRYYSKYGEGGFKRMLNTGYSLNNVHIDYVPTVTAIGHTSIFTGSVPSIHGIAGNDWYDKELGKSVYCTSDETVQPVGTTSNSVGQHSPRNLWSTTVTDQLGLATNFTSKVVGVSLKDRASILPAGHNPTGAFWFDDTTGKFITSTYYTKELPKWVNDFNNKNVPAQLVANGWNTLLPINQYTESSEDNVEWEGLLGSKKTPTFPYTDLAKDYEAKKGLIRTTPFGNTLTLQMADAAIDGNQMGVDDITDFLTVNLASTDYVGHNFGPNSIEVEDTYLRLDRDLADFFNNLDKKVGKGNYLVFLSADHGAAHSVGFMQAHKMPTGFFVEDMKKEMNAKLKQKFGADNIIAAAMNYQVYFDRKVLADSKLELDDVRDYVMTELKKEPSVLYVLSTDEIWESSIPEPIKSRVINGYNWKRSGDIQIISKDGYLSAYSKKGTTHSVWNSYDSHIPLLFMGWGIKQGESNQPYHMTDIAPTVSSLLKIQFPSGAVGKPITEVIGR
Change,oxyanion analog dissociation constant [µM]
A262G,1.83
P249G,4.06
S457V,2.81
K461G,2.1
S119V,2.15
P190G,2.04
K241V,2.29
S283G,2.42

# Block 3
# Target: UDP-N-acetylglucosamine--peptide N-acetylglucosaminyltransferase 110 kDa subunit (OGT, Homo sapiens, UniProt O15294)
# Observed: binding
# Technique: phage display NGS
# Form: peptide
# Concentration: concentration not given
# Setting: normalized abundance
# Relative to: input library
# Residues (O15294 1-1046): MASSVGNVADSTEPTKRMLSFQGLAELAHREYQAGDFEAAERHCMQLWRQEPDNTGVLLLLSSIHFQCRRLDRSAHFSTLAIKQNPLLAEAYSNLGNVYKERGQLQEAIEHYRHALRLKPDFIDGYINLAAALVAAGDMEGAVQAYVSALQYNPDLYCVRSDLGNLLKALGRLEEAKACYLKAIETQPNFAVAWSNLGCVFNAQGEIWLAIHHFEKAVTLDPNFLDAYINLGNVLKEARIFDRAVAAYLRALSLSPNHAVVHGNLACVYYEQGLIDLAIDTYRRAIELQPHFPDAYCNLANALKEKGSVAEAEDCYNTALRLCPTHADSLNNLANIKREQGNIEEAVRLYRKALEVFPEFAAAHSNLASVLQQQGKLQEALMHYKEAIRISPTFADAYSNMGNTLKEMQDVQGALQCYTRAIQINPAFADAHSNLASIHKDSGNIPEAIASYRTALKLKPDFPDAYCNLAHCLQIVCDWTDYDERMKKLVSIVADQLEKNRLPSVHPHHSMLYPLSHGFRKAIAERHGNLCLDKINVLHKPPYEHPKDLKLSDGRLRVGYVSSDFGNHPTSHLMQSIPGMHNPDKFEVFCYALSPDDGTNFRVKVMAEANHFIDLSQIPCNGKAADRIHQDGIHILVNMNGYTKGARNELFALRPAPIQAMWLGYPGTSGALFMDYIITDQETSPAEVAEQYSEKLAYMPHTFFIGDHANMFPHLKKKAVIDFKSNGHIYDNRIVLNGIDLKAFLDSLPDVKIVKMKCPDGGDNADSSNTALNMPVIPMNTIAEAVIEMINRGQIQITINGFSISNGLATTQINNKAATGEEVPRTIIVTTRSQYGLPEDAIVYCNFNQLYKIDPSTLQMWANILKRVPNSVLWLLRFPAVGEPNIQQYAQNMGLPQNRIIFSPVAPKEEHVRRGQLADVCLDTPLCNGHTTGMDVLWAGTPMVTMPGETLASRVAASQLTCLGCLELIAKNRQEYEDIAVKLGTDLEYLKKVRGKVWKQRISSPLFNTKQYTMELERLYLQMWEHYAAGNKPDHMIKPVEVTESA
Sequence,enrichment fold change
SSYMPQYQISFLKKE,64.9
VPYKHWHVHRGDDHF,6.35
DDWRPLYQIIYTSQD,69.3
HTMWHAEHFTRYDVH,6.01
HDHNKWAVNQHGWHV,8.53
VLQPYLPEYQIYPNY,6.38
DTYEPVYQITPRADT,4.26
AQNYLPVYQIVWRDN,11.4

# Single results of other studies
Compound,target,assay,conditions,how to read,measurement,value
CCn1cnc2c(Nc3cccc(Cl)c3)nc(N[C@H]3CCCC[C@H]3N)nc21,"RAC-beta serine/threonine-protein kinase (AKT2, Homo sapiens, UniProt P31751)","enzyme activity, inhibitor",0.5 µM,relative to: control,remaining activity,108%
